# Measurements of several laboratories.
# Numbered parts are unrelated; each lists some results of a single study.

# Sample 1
# Target: Replicase polyprotein 1ab, nsp13 helicase (rep, Severe acute respiratory syndrome coronavirus 2, UniProt P0DTD1)
# Action: inhibitor
# Tested at: 20 µM
Compound,inhibition [%]
Cc1cc(Nc2cc(CN3CCOCC3)c3nc(C)c(Cc4ccc(Cl)cc4F)n3n2)n[nH]1,8.54
Cc1cc(O)c(C(C)C)cc1Cl,1.04
Cn1cnc2c(NCc3ccccc3)nc(NCCO)nc21,3.69
O=C(O)c1cc(N2N=C(C(F)(F)F)/C(=C/c3ccc(-c4ccccc4)o3)C2=O)ccc1Cl,35.6
Cn1nc(-c2cccc(F)c2)n(C)c1=S,-15.8
Nc1nc(OCc2cc(Br)cs2)c2[nH]cnc2n1,9.21
O=C(Nc1ccc(C(=O)O)c(O)c1)c1ccccc1,5.66
Cc1[nH]c(/C=C2\C(=O)Nc3ccc(S(=O)(=O)N(C)c4cccc(Cl)c4)cc32)c(C)c1C(=O)N1CCN(C)CC1,4.62
COc1ccccc1N1CCN(CCN2C(=O)c3ccccc3C(C)(C)C2=O)CC1,0.42
Cc1cc(Cl)ccc1OCCCC(=O)NO,-2.54
O=C(c1ccc(F)cc1)C1CCN(CCn2c(=S)[nH]c3ccccc3c2=O)CC1,3.92
O=C(O)COCCN1CCN([C@H](c2ccccc2)c2ccc(Cl)cc2)CC1,6.01
Oc1ccc([C@H]2COc3cc(O)ccc3C2)cc1,6.75
CC(C)(Cc1c[nH]c2ccc(Cl)cc12)NCCOc1ccccc1OCC1CC1,0.36
CN(C(=O)C(Cl)Cl)c1ccc(OC(=O)c2ccco2)cc1,1.99
Clc1ccc(CCC(Cn2ccnc2)Sc2c(Cl)cccc2Cl)cc1 (centres unmarked),-1.57
COc1cc(/C=C/C(=O)N2CCN(CC(=O)N3CCCC3)CC2)cc(OC)c1OC,2.9
[O-][S+](c1ccccc1)c1ccc2nnnn2n1 (centres unmarked),40.3
Cc1noc(C)c1-c1ccc(-c2cc(C(N)=O)c(NC(N)=O)s2)c(O[C@H]2CCNC2)c1,45.5
O=C1S/C(=C\c2ccc(OCc3cccc(B(O)O)c3)cc2)C(=O)N1Cc1ccc(F)cc1,3.95
O=C1CC2(CCCC2)CC(=O)N1CCCCN1CCN(c2ncccn2)CC1,5.54
CN1CC[C@@H](NC(=O)Nc2ccc(C#N)cc2)C[C@@H]1c1nc2ccccc2[nH]1,1.42
CC(C)CC(N)C1(c2ccc(Cl)cc2)CCC1 (centres unmarked),-3.34
CCCCCCCCCCCCCCCC(=O)OCCC1CCN(CCCN2c3ccccc3Sc3ccc(S(=O)(=O)N(C)C)cc32)CC1,3.23

# Sample 2
# Target: Replicase polyprotein 1ab, main protease (rep, Severe acute respiratory syndrome coronavirus 2, UniProt P0DTD1)
# Observed: enzyme activity
# Action: inhibitor
# Tested at: 20 µM
# Notes: hit confirmation, no DTT
SMILES,inhibition
C/N=c1/nc(-c2ccccc2)n(-c2ccccc2)s1,100%
C[C@@H](CN1CC(=O)NC(=O)C1)N1CC(=O)NC(=O)C1,98.6%
Cc1cc(-c2ccc(/N=N/c3ccc4c(S(=O)(=O)O)cc(S(=O)(=O)O)c(N)c4c3O)c(C)c2)ccc1/N=N/c1ccc2c(S(=O)(=O)O)cc(S(=O)(=O)O)c(N)c2c1O,102%
COc1cc(-c2ccc(/N=N/c3ccc4c(S(=O)(=O)O)cc(S(=O)(=O)O)c(N)c4c3O)c(OC)c2)ccc1/N=N/c1ccc2c(S(=O)(=O)O)cc(S(=O)(=O)O)c(N)c2c1O,94.5%

# Sample 3
# Target: Phosphate system positive regulatory protein PHO4, full length, GST-tagged (PHO4, Saccharomyces cerevisiae, UniProt P07270, residues 1-312)
# Technique: competition protein-binding microarray
# Molecule type: double-stranded DNA, one strand shown
# Sample: in vitro
# Tested at: 2 µM
# Notes: whole 60-bp probe, lowest competitor level
# Together with: Cbf1 competitor, 0.05 µM
# Direction: higher = stronger binding
# Constant ends, left off below: … GTCTTGATTCGCTTGACGCTGCTG
# Target sequence (chain): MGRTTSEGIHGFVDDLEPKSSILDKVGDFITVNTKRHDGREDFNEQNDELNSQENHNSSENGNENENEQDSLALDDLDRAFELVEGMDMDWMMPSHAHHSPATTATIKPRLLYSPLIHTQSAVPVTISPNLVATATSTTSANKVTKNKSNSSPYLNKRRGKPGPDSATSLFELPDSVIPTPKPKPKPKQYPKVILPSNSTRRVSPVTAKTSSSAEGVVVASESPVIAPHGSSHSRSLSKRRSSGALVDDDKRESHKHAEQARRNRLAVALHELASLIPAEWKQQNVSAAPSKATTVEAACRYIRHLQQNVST
Sequence,fluorescence intensity [a.u.]
TGCGCAACAACTTGTCACAGTACTTTATGTCTAGAA,3560
ACCGCTGAGGCAAGTACCGTGCAAAATGATGTGAGT,6100
GTCGCAGTGTCGTCGTACGTGATGGGGGCAGGCTTG,4440
CATGGAAAAGCAAGTGCCGTGCCAGTTCCAACTAAG,6240
TTGGAGCAGAACAAACACCTGATGACGCGGAAGACG,4270

# Sample 4
# Cell line: HEK-293T/ACE2
# Tested at: concentration not given
# Time: 16 (unit not given)
# Baseline: vehicle
Compound,viability
CCOc1ccccc1OCCN[C@H](C)Cc1ccc(OC)c(S(N)(=O)=O)c1,83.6%
CC(c1cc2ccccc2s1)N(O)C(N)=O (centres unmarked),105%
CCOc1nc2cccc(C(=O)OC(C)OC(=O)OC3CCCCC3)c2n1Cc1ccc(-c2ccccc2-c2nnn[nH]2)cc1 (centres unmarked),81.8%
C[C@H]1O[C@@H](O[C@H]2[C@@H](O)C[C@H](O[C@H]3[C@@H](O)C[C@H](O[C@H]4CC[C@@]5(C)[C@H](CC[C@@H]6[C@@H]5CC[C@]5(C)[C@@H](C7=CC(=O)OC7)CC[C@]65O)C4)O[C@@H]3C)O[C@@H]2C)C[C@H](O)[C@@H]1O,79.1%

# Sample 5
# Target: Histone acetyltransferase KAT6A, both winged helices, GST fusion (KAT6A, Homo sapiens, UniProt Q92794, residues 1-181)
# Technique: protein binding microarray
# Molecule type: double-stranded DNA, one strand shown
# Sample: in vitro
# Tested at: not given
# Notes: 8-mer, flanks averaged, mean of 2 arrays, mostly near background
# Baseline: not given
# Direction: higher = stronger binding
# Target sequence (chain): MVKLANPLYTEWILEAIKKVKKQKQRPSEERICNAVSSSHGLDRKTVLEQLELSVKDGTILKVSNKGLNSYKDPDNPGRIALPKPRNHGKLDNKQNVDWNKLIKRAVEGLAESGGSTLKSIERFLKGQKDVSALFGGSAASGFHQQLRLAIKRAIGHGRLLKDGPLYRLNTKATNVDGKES
Sequence,E-score
GGGCTAAC,-0.0372
AGTATGAA,-0.0441
ACCGCGAG,0.27
TACGAAGA,-0.0184
CATCCAAG,-0.2
CTCCGGAC,0.0689
GAGCCTGC,0.0483
AATTTGGA,-0.232

# Sample 6
# Target: Interferon regulatory factor 5, full length, phosphomimetic (IRF5, Homo sapiens, UniProt Q13568-2, residues 1-514, S451D/S453D/S456D/S462D)
# Technique: protein-binding microarray
# Molecule type: double-stranded DNA, one strand shown
# Sample: in vitro
# Tested at: 940 nM top
# Notes: 60-bp whole probe
# Together with: salmon DNA 0.4 mg/ml
# Baseline: random background probes
# Direction: higher = stronger binding
# Constant ends, left off below: GCCTAGCAC … GTCTTGATTCGCTTGACGCTGCTG
Sequence,fitted relative affinity
ACAACTAGGGAATTTAGAAAAGTGCTA,-0.49 z-score
GATGGTTTCGGACTGGGGACGTGCTAG,7.27 z-score
TCAAACCCCATTCTCAGACTGTGCTAG,0.954 z-score
TTAGAACTGAGACTGGCTTAGTGCTAG,-0.531 z-score
GACGGTCTCGATCTCGGGACGTGCTAG,2.37 z-score
GACGATATCAGTTTCGAAACGTGCTAG,5.09 z-score
GACGGTCTCCTATTGCTGACGTGCTAG,-0.0283 z-score
GACGGTTTCGGTCTCGGGGCGTGCTAG,13.7 z-score

# For quick reference, copied from above (sample 5):
Sequence,E-score
GGGCTAAC,-0.0372
CATCCAAG,-0.2
ACCGCGAG,0.27
AGTATGAA,-0.0441
TACGAAGA,-0.0184
AATTTGGA,-0.232
